Measurements gathered from unrelated publications.
Each numbered part is a random draw from the data of one study; scales do not carry over between parts. Changes are numbered by the printed parent chain.

Study 1
Target: ABI1, truncated, D143A, DHFR fusion (Arabidopsis thaliana)
Technique: DHFR PCA, deep sequencing
Sample: yeast
Notes: methotrexate growth selection, single substitutions
Together with: (+)-ABA 0.39 µM
Relative to: wild-type fitted maximum
Reading: higher = stronger binding
Quantity: relative binding score
Starting sequence: PYL1, truncated, DHFR fusion (Arabidopsis thaliana); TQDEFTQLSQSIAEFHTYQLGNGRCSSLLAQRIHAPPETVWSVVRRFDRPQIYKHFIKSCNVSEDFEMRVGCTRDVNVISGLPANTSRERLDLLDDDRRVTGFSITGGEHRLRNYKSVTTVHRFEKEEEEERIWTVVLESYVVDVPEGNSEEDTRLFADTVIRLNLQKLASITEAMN; partner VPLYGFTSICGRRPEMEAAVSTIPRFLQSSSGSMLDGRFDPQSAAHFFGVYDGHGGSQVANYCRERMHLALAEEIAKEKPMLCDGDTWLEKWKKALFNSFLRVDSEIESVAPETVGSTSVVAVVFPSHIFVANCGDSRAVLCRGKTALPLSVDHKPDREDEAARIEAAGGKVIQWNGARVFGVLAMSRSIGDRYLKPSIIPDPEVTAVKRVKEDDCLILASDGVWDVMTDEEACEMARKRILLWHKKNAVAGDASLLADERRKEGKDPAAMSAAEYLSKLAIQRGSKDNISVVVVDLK
C72K: 3.54%
E128L: 26.8%
E147P: 46.8%
T135Q: 2.83%
F47E: 0.897%
L29A: -3.02%
L28S: 2.99%
W134N: 7.96%
L112K: -15.1%
R69S: 31.7%
Y53N: -9.64%
I105F: -12.8%
R46L: 3.2%
W41K: -12.6%
D153T: -15.2%
T39Y: 11.8%

Study 2
Target: RNA binding protein fox-1 homolog 2, RRM domain, GST-SBP tag (RBFOX2, Homo sapiens, UniProt O43251-10, residues 100-194)
Technique: RNA Bind-n-Seq
Form: RNA
Sample: in vitro
Tested at: 365 nM
Notes: natural RNA segment, single round, ends assumed
Relative to: no-protein control
Reading: higher = stronger binding
Quantity: RBNS enrichment (R)
Constant ends, left off below: GGGAGUUCUACAGUCCGACGAUC … UGGAAUUCUCGGGUGCCAA
Residues (chain): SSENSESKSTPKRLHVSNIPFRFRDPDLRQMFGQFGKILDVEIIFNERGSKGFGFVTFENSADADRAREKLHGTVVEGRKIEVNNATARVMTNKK
GCUCACCAAUGCCACAUUUGUUCAUUCUGUUCAACCUGUUUUGACCUCCCAGGCAUCUGAACAGGAUGACAUCAUCUUAUUAUAUCUUACUUUACACAUACGUGUAUGUA: 0.667
GGCUCCUUCAGCAGCUAGAGCUCAGUAUACUAAUGCCCUAUCUUAGUAGAGAUUUCAUAGCUAUUUAGAGAUAUUUUCCAUUUUAAGAAAACCCGACAACAUUUCUGCCA: 0.731
GCUUUUCUUCCUCAGGAGUAUGAAUUUUCUGAGCUAGCUGCUGUAAAUUCAGUGAGGCUAAAGGGAUACUUGAAUGUUAUUUUUUUUCUCCUAAGAAAAUGGGAGGCUAC: 0.958
AUUCUGUAUAUAUUGCCCUGAACUUUCUGUGAUCACAGAUUAAAAAUAUCUUUUGGUUCCAAAUAGAAAGACAAUUCUUUAUUGUCUGACUGUAAUACAGCCUUCAUUGU: 0.452
GAGAGUGAAGAAGAUGAAGACAGAUGCAGCCAGCCAGUCACACGAGAGGCCUGGCUUGCCUUGCCCAGUGCUGCCUAUAGCAUCCUCCCAGGGAGGCUUGCCCUGUGCCA: 1.14
GGGCUUGUCCUAGAGGCUCCAGCUCUGGCACAGUGGUUCCUGGCUGCUGCCAUGUCUCAGAUGAGGAGGGAGAGAAGGAGGCCGCCAGACUCGAGAGGUGGGAGGAACUC: 0.507
UCCUCAUCCCUUCAGCAAUAUGUAUUUGAGUUCACACUAUUUCUGUUUUACAGCAGUUUUGAAAAACACAUACUAUGCCACCAAUUGUCAUAUUAUUUUUAGAUGAUGUA: 0.382
AAUACAUGCACACCAGAAAGGCAUUUCCACCACCGUCCCCACUCAUUAGCGUCCAGAGUGCCUUUCUCUCUCGGCUUUUUUUCCCCCCUGAGCUCUAGUUUUAAACUUUC: 1.39
UAAUUUUAAUAGAUAAUAAUCAUAAAAUAUGUAGAACAUUUUGUCAAUUUGCAAGAUAAGUUAUGGGUCACAUGAACAGUCAUGGCAUUUAGCACGUUAUAGGAAAUUAU: 4.38
GGAAGGAGGCAGACUGAUGGCGAUUCCCUCUCACCCGGGACUCUCCCCCUUUCAAGGAAAGUGAACCUUUAAAGUAAAGGCCUCAUCUCCUUUAUUGCAGUUCAAAUCCU: 0.268
AGUUGGGGGGUAGUGGAUCUUAGUGUGGUGUUGCAUGGAGGGGCGAGAUUUUAUAUUUAUAAUCAACACGUGGGUUAACAUGUUUUUUUGAAAUCCAAGCAAUACACAGG: 1.22
AAAUAUUGUACCUUGUUUAGCCUACCUCACAGGGCUGUUGUGAGGAGUGUAGUGAAACGGACUCUCAUGUGAACUGGGUGGUUUCCACUAAGAAUGGUUGUGUUUGGAUA: 2.48

Study 3
Target: CCND1, cyclin fold, Cln2 fusion (human)
Technique: yeast growth competition, sequencing
Sample: yeast
Notes: strong parent motif
Relative to: not given
Reading: higher = stronger binding
Quantity: normalised enrichment score
Starting sequence: PKN2 docking peptide (human); VSAVRKLDFSDTM; partner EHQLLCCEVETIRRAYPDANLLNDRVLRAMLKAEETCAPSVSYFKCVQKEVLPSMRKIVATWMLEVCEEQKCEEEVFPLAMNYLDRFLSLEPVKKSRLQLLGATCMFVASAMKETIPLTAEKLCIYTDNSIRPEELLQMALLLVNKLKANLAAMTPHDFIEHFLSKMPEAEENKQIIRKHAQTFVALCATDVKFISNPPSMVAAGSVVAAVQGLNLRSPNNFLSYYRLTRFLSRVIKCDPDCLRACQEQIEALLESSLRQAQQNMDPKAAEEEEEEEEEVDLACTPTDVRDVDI
VSAVRALDFSDTM [K6A]: 3.35
VSAVRKLDFSDGM [T12G]: 5.28
VSAVRCLDFSDTM [K6C]: 4.72
VSAVRKLDNSDTM [F9N]: -0.145
VSAGRKLDFSDTM [V4G]: 1.53
VSAVRKLDFSDPM [T12P]: 5.65
VSAVRKLDMSDTM [F9M]: 0.973
VSAVRKLYFSDTM [D8Y]: 2.12
VSAVRKLAFSDTM [D8A]: 1.61
VSAVRKLDSSDTM [F9S]: 0.106
VSAVRLLDFSDTM [K6L]: 2.98
VSAVRKLDFSDFM [T12F]: 5.82
VSAVRKLDTSDTM [F9T]: 0.0327
VSAVRKLIFSDTM [D8I]: 2.79
VSAVRKRDFSDTM [L7R]: -0.285
VSAVKKLDFSDTM [R5K]: 2.62
VSAVRGLDFSDTM [K6G]: 0.803
VSAVRKLDFSDIM [T12I]: 5.4
VSAVRKLDFSDKM [T12K]: 5.8
VSTVRKLDFSDTM [A3T]: 2.88
VSAQRKLDFSDTM [V4Q]: 4.5
VSAVRMLDFSDTM [K6M]: 3.49
VSAVRTLDFSDTM [K6T]: 2.44
VSAVRKLDFSGTM [D11G]: 5.34
VSAVRKLDFWDTM [S10W]: 2.65

Study 4
Target: FOS, bZIP domain (human)
Technique: DHFR protein complementation
Sample: yeast
Notes: single substitutions, most at no-binding floor
Relative to: wild-type JUN-FOS pair
Reading: higher = stronger binding
Quantity: binding fitness
Starting sequence: JUN, bZIP domain (human); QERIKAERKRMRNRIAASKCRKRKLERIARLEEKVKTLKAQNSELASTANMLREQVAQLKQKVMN; partner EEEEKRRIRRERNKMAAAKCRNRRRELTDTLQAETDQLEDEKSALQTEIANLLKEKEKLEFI
E32A: 0.304 natural log
V35F: -0.524 natural log
A29T: -0.102 natural log
A49N: -1.3 natural log
S43N: -0.0406 natural log
S47A: 0.0936 natural log
K34G: -0.0726 natural log
L31S: -0.631 natural log
I28C: -0.283 natural log
Q41F: -1.42 natural log
M51G: -0.155 natural log
T48N: -0.352 natural log
Q55N: -0.388 natural log
E33H: -0.234 natural log
L38T: -1.16 natural log
A57M: -0.12 natural log
K39P: -1.31 natural log
L59H: -1.15 natural log
A46V: -0.163 natural log
A29Y: -0.24 natural log
V35C: -0.221 natural log
E32G: -0.238 natural log

Study 5
Target: Sal-like protein 4, full length isoform B (SALL4, Homo sapiens, UniProt Q9UJQ4-2, residues 1-616)
Technique: universal PBM
Form: double-stranded DNA, one strand shown
Sample: in vitro
Tested at: not given
Notes: 8-mer, flanks averaged, mean of replicates
Reading: higher = stronger binding
Quantity: E-score
Target sequence (chain): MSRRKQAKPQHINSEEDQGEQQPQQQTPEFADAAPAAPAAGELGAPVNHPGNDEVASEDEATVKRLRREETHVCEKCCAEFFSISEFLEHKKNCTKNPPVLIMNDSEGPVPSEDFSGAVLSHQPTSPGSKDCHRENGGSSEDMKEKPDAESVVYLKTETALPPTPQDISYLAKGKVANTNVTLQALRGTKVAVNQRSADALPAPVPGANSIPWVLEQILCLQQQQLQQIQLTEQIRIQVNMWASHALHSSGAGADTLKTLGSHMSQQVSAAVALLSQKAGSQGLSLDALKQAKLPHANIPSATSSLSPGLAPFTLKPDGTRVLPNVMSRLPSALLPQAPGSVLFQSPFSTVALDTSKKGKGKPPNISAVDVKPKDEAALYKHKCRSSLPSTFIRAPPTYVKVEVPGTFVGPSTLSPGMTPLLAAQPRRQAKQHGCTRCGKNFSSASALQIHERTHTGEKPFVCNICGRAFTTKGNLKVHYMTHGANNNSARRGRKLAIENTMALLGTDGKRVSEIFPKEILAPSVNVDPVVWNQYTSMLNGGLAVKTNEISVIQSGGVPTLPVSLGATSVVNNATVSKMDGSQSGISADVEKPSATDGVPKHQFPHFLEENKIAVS
GGTTTTAC: 0.0192
TCGACGAA: -0.00937
AACATGAT: 0.255
AAAGTATT: 0.306
CACTGCCA: -0.0403
TAAGTCCA: 0.00966
GTGTCCAA: -0.0566
GACGTGCA: 0.0733
CCCCTGGA: -0.354
AGTAGTAG: 0.0596
AAGCGTGG: -0.285
CTCTTGCC: -0.0679
AGAGCGCG: -0.223
ACGGAAGC: -0.099
AGGCCGAT: -0.0775
AATTGAGG: 0.0341
TGGAACAA: 0.167
CAATTCAC: 0.19
AGGATCGG: -0.233
ACCCAAAG: -0.0499
CAGGGTCC: -0.241
AACAGCGC: -0.177
ACTCGAGG: -0.101
AGGTCCAC: -0.258
CAGCGCTC: -0.133

Study 6
Target: Histone acetyltransferase KAT6A, winged helix 1, GST fusion (KAT6A, Homo sapiens, UniProt Q92794, residues 1-85)
Technique: protein binding microarray
Form: double-stranded DNA, one strand shown
Sample: in vitro
Tested at: not given
Notes: 8-mer, flanks averaged, mean of 2 arrays, mostly near background
Relative to: not given
Reading: higher = stronger binding
Quantity: E-score
Residues (chain): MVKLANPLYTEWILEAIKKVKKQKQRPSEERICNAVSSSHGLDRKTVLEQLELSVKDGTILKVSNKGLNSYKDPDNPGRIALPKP
AGCGGCAG: 0.368
CCGCCGTC: 0.437
CTCGGATA: 0.121
CAGCTTAG: -0.0948
TGCTAAAA: -0.142
CGTTTGGA: -0.0849
AAAATTAT: 0.0251
AATCAGCC: 0.0904
CACTGCCG: 0.226
ATGCTTTC: -0.0753
ACTATAAC: -0.155
GCTGTCCA: -0.0503
CTTCAAGC: -0.0472
AATCGACC: 0.00592
ACACTAAT: -0.0016
AGCATACA: -0.159
CATTAGCA: -0.239
ACTACCGA: 0.0297
AGGAATCC: -0.054
AATGCATT: -0.25

Mixed results
PhoQ, residues 284 288 289 292 302 303 QWQEDG
fold induction (PhoP, residues 12 14 15 18 19 NQFFI (Escherichia coli, UniProt P23836); Sort-seq, refers to: YFP reporter; E. coli; PhoQ-PhoP variant library, together with: 10 µM Mg2+; relative to: high Mg2+ state, higher = stronger signaling): 2.43

For quick reference, copied from above (study 4):
L31S: -0.631 natural log
I28C: -0.283 natural log
Q41F: -1.42 natural log
M51G: -0.155 natural log
T48N: -0.352 natural log
Q55N: -0.388 natural log
E33H: -0.234 natural log
L38T: -1.16 natural log
A57M: -0.12 natural log
K39P: -1.31 natural log
L59H: -1.15 natural log
A46V: -0.163 natural log
